Measured values gathered from unrelated publications.
Compare with care: the assays were run in different laboratories. ± marks the error that the study gave.
ALB: Albumin (ALB, Homo sapiens, UniProt P02768)
uncharacterized protein: uncharacterized protein (Spodoptera exigua, UniProt F1CEY0)

`CNCC(=O)NC(Cc1cccc(OC)c1I)C(=O)OC` (stereo not shown) — result for activity: “inactive” (OPRK1 (Homo sapiens, UniProt P41145); binding; concentration not given).
`NCCCS(=O)(=O)O` — result for “normalised MST signal”: -0.0607 (SLC6A6 (Homo sapiens, UniProt P31641, G62A); binding, microscale thermophoresis; 31.3 µM, room temperature, with: 50 nM labelled protein; higher = more binding).
`N[C@H](CNC(=O)c1cc(Br)c(-c2ccccc2F)s1)C(=O)O` gave a potency ratio of 8.5 fold (Glutamate receptor ionotropic, NMDA 1, with GluN2C (Grin1, Rattus norvegicus, UniProt P35439, S688A); baseline: mutant over wild type).
`Cc1ccsc1/C=C/c1nc(N)nc(-c2ccccc2O)n1` has a ligand efficiency of 0.52 (ADORA2A (Homo sapiens, UniProt P29274); radioligand displacement; with: [3H]ZM241385).
With `Cc1occc(=O)c1[O-].[Cl-].[W+4].c1cc[cH-]c1.c1cc[cH-]c1` the enthalpy change was 2.01 kcal/mol (ALB; binding, van't Hoff fluorescence quenching; concentration not given).
With `CC[C@H](C)[C@@H]1NC(=O)[C@H](Cc2ccc(O)cc2)NC(=O)[C@@H](N)CSSC[C@@H](C(=O)N2CCC[C@H]2C(=O)N[C@@H](CC(C)C)C(=O)NCC(N)=O)NC(=O)[C@H](CC(N)=O)NC(=O)[C@H](CCC(N)=O)NC1=O` the dissociation half-life was 16 min (Oxytocin receptor (Rattus norvegicus, UniProt P70536); rat lactating mammary cells; with: 1 µM compound).
`COc1ccc(-c2cc(=O)c3c(O)c(OC)c(O)c(OC)c3o2)cc1` has a Km of 33 ± 2.66 µM (O-methyltransferase (Citrus reticulata); C7 O-methylation, substrate; with: S-adenosylmethionine).
With `CCCCCCCCCCCCCC(C)=O` the relative fluorescence was 44.6% (uncharacterized protein; binding, competitor, fluorescence displacement; 20 µM, pH 7.4, with: 1-NPN 20 µM; baseline: 1-NPN alone).
For `CC[C@H](C)[C@@H]1NC(=O)[C@H]([C@@H](C)O)NC(=O)[C@@H]2CCCN2C(=O)[C@@H](NC(=O)CN)CSSC[C@@H]2NC(=O)CNC(=O)[C@H](C)NC(=O)[C@H](CC(C)C)NC(=O)[C@@H]3CSSC[C@@H](C(=O)NCC(=O)O)NC(=O)[C@H](Cc4ccccc4)NC(=O)CNC(=O)[C@H](CC(N)=O)NC(=O)[C@@H]4CCCN4C(=O)CNC(=O)[C@H](CSSC[C@H](NC(=O)[C@H](CCCNC(=N)N)NC(=O)[C@H](CCC(N)=O)NC(=O)[C@H](CCCNC(=N)N)NC(=O)[C@H](CCCCN)NC(=O)[C@H](C(C)C)NC(=O)[C@H](Cc4c[nH]cn4)NC(=O)[C@H](CC(N)=O)NC1=O)C(=O)N[C@@H](CCCCN)C(=O)N[C@@H](CCC(N)=O)C(=O)N[C@@H](CC(=O)O)C(=O)N[C@@H](CO)C(=O)N[C@@H](CC(=O)O)C(=O)N3)NC(=O)[C@H](C(C)C)NC2=O`, the kon was 1.45e+06 ± 290000 M⁻¹ s⁻¹ (Low-density lipoprotein receptor-related protein 6, E1 domain (LRP6, Homo sapiens, UniProt O75581); binding, SPR; pH 7.5).
`C#Cc1c(F)ccc2cc(O)cc(-c3ncc4c(N5CC6CCC(C5)N6)nc(OC[C@@]56CCCN5C[C@H](F)C6)nc4c3F)c12`: “dissociation rate constant koff” 0.00053 ± 0.00035 s⁻¹ (GTPase KRas, GDP-bound (KRAS, Homo sapiens, UniProt P01116, Q61R); SPR).
Under “log2 fold change”, `CCN1CCC[C@H]1CNC(=O)c1c(O)c(Cl)cc(Cl)c1OC` is recorded as 0.462 (Probable G-protein coupled receptor 148 (GPR148, Homo sapiens, UniProt Q8TDV2); β-arrestin recruitment, TANGO luminescence, measured: GPR148; concentration not given; baseline: basal luminescence).
`C#Cc1cccc(Oc2ccc(-c3nn([C@@H]4CCCN(C(=O)C=C)C4)c4ncnc(N)c34)cc2)c1` has an SILAC ratio of 20 (ALDH1A1 (Homo sapiens, UniProt P00352); ABPP-SILAC; 1 µM, 1 h; baseline: DMSO).
Under “mean decatenated DNA”, `O=c1nc(SCc2cc(F)cc(C(F)(F)F)c2)nc(SCc2csc3ccc(Cl)cc23)[nH]1` is recorded as 4.7% (TOP2B (Homo sapiens, UniProt Q02880); decatenation; 15.6 µM).
For `C=CC(=O)N1CCC(COCC(=O)N2CCN(c3nc(-c4cnc(N)nc4C(F)F)nc(N4CCOC[C@@H]4C)n3)CC2)CC1`, the remaining binding was 100% (CAMK1G (Homo sapiens, UniProt Q96NX5); KINOMEscan; 1 µM).
`CC(C)=CCCC(C)CCO` (stereo not shown) has a relative fluorescence of 70.4% (uncharacterized protein; binding, 1-NPN competitive displacement; protein 2.0 µM, with: 1-NPN 20 µM; baseline: 1-NPN without compound, lower = stronger binding).
For `CCCCCCCCCCCCCCCCCCc1ccc(O)cc1`, “number of binding sites” read 0.91 (ALB; fluorescence quenching; concentration not given, 37 °C).

A few entries again:
For `CC[C@H](C)[C@@H]1NC(=O)[C@H]([C@@H](C)O)NC(=O)[C@@H]2CCCN2C(=O)[C@@H](NC(=O)CN)CSSC[C@@H]2NC(=O)CNC(=O)[C@H](C)NC(=O)[C@H](CC(C)C)NC(=O)[C@@H]3CSSC[C@@H](C(=O)NCC(=O)O)NC(=O)[C@H](Cc4ccccc4)NC(=O)CNC(=O)[C@H](CC(N)=O)NC(=O)[C@@H]4CCCN4C(=O)CNC(=O)[C@H](CSSC[C@H](NC(=O)[C@H](CCCNC(=N)N)NC(=O)[C@H](CCC(N)=O)NC(=O)[C@H](CCCNC(=N)N)NC(=O)[C@H](CCCCN)NC(=O)[C@H](C(C)C)NC(=O)[C@H](Cc4c[nH]cn4)NC(=O)[C@H](CC(N)=O)NC1=O)C(=O)N[C@@H](CCCCN)C(=O)N[C@@H](CCC(N)=O)C(=O)N[C@@H](CC(=O)O)C(=O)N[C@@H](CO)C(=O)N[C@@H](CC(=O)O)C(=O)N3)NC(=O)[C@H](C(C)C)NC2=O`, the kon was 1.45e+06 ± 290000 M⁻¹ s⁻¹ (Low-density lipoprotein receptor-related protein 6, E1 domain (LRP6, Homo sapiens, UniProt O75581); binding, SPR; pH 7.5).
`C#Cc1c(F)ccc2cc(O)cc(-c3ncc4c(N5CC6CCC(C5)N6)nc(OC[C@@]56CCCN5C[C@H](F)C6)nc4c3F)c12`: “dissociation rate constant koff” 0.00053 ± 0.00035 s⁻¹ (GTPase KRas, GDP-bound (KRAS, Homo sapiens, UniProt P01116, Q61R); SPR).
